# Measured values pooled from the literature.
# Each line is one published result; not all experiments were run side by side. Values joined by “and” are separate records of one study, mostly repeats; a detail may differ. ± gives the spread as reported.
SMILES,cell line,assay,system,conditions,scale,measurement,result
O=C1[C@H]2CCCN2[C@H](c2cccc3c2OCO3)N1c1ccc(Cl)c(Cl)c1 (racemic),PC-12,,,"50 µM, 2 days",,mutant huntingtin protein level,no effect
[Cl-].[Cl-].[Os+2].c1cnc2c(c1)ccc1cccnc12.c1cnc2c(c1)ccc1cccnc12.c1cnc2c(c1)ccc1cccnc12,SK-MEL-28,,,"visible light, 1% O2 hypoxia",,TGI,275 µM
CCn1cc(-c2cc(Cn3ccoc3=N)cc3c2CCN([C@@H](C)c2cc(OC)ccn2)C3=O)c(C(F)(F)F)n1,PLC-PRF-5,"cell growth, inhibitor",,120 h,,EC50,2.65 µM
Cc1cccc(-c2[nH]c(CNc3ccccc3F)nc2-c2ccc3ncnn3c2)n1,RPMI-8226,"flow cytometry, item: CD2",,concentration not given,baseline: comparator compound alone,surface marker level,59%
CCCCc1oc2ccc(NS(C)(=O)=O)cc2c1C(=O)c1ccc(OCCCN(CCCC)CCCC)cc1,human embryonic stem cell aggregates,"mRNA level, microarray, item: MAP6",,"0.5 µM, 120 h","baseline: untreated, up-regulated",fold change,1.9 fold
COc1ccc(NC(=S)N/N=C/c2cccc3cc4ccccc4nc23)cc1,HeLa,TMRE flow cytometry,,"IC12.5, 48 h, unit not given",baseline: DMSO control,mitochondrial membrane potential,1.03 ± 0.4
CC(C)NCC(O)c1ccc(O)c(O)c1 (stereo not shown),mouse ventricular cardiomyocytes,,,"dose not given, 0.363 s",,sarcomere length,1.8 µm
Nc1ccc(-c2ccc3ncc4ccc(=O)n(-c5cccc(C(F)(F)F)c5)c4c3c2)cn1,SNU-1040,,,"330 nM, 3 days, 100% DMSO",baseline: vehicle,cell growth,75.6%
O=c1ccn([C@@H]2O[C@H](CO)[C@@H](O)[C@H]2O)c(=O)[nH]1,activated human T cells,,human,1 µM,,T cell proliferation,73.9% and 50.9% and 67.5% and 59% and 55.1%
Cn1cc(Nc2nccc(-c3ccc4c(c3)CN(C3COC3)CC[C@H]4NC(=O)c3cn(C(C)(C)C)nn3)n2)cn1,human B cells,,,"100 nM, 64 h, non-stimulation-regulated genes, added: CD40L, anti-IgM, IL-4",,number of upregulated genes,44
CC[C@@H](C)[C@H]1NC(=O)[C@H](Cc2ccc(-c3ccccc3)cc2)NC(=O)[C@H](CC(C)C)NC(=O)[C@@H]2[C@@H](c3ccccc3)CCN2C(=O)[C@H](NC(=O)[C@@H](CCCNC(=N)N)NC(=O)[C@@H](CCCNC(=N)N)NC(C)=O)CSCSC[C@@H](C(=O)N[C@H](CCCNC(=N)N)C(=O)N[C@H](CCCNC(=N)N)C(N)=O)NC(=O)[C@H](C(C)C)NC(=O)[C@@H]2CCCN2C(=O)[C@H](CC(=O)O)NC(=O)[C@H](Cc2ccc(O)cc2)NC(=O)[C@@](C)(CO)NC1=O,AsPC-1,"AlphaScreen, item: pERK",,2 h,,IC50,> 50 µM
O=c1[nH]nc(OCCCc2ccc(Cl)cc2)c(NCc2cccnc2)c1Br,HEK-293T,"RNA-seq GSEA, item: HALLMARK_DNA_REPAIR",,concentration not given,direction not given,normalized enrichment score,-0.929
CCCCCCCCCCCCCCCCCCOc1ccccc1CC(=O)OCC[N+]1(C)CCCC1,NSCLC panel (nine cell lines),,,10 µM,,mean growth inhibition,68.1%
COc1cnc2cccc(N3CCc4c(cc(Cn5ccnc5C)cc4-c4cn(C)nc4C(F)(F)F)C3=O)c2c1,COLO-741,"cell growth, inhibitor",,120 h,,EC50,1.19 µM
CCCCN1C[C@H](O)[C@@H](O)[C@@H](O)[C@H]1CO,sample C patient fibroblasts,"Gb3 level lowering, LC-MS/MS, item: Gb3 d18:1/16:0",,216 h,,IC50,4.6 µM
Cn1cc(-c2ccc(-c3cncc(Cl)c3N3CCC4(CCNC4=O)CC3)cc2)cn1,COLO 205,"gene expression, microarray, item: CCR7 mRNA",,"concentration not given, 6 h",baseline: untreated cells,log2 fold change,-2
O=C(/C=C/C=C/C=C/C1CCCCC1)NC1=C[C@@](O)(/C=C/C=C/C=C/C(=O)NC2=C(O)CCC2=O)[C@@H]2O[C@@H]2C1=O,LS180,"cell growth, CellTiter-Glo",,78 h,,GI50,29.2 µM
CC/C(=N\NC(=O)NCc1cccc(O)c1)c1ccc(O)c(C)c1O,SK-OV-3,ATP,,"1 µM, 4 days, 3D U-bottom low-attachment",baseline: untreated,relative cell number,115%
COc1cc2c(cc1OC)/C(=C/CCCCCCOCc1ccccc1)C=C2C(F)(F)F,MM1.S bortezomib-resistant,Western blot,,"0.5 µM, 8 h",,Nrf2 stabilization,no effect
